Results from different studies.
Lines come from different studies, so protocols differ. ± marks the error that the study gave.

CC(C)N1CCn2cc(C(=O)NCc3ccc(F)cc3F)c(=O)c(O)c2C1=O
EC50 (HIV-1; viral replication, single-round vector infection; IN L74M/G140C/Q148R): 102 ± 5.5 nM

Cc1cccc(-c2cc(C#N)cc(Oc3c(C(F)(F)F)ccn(Cc4n[nH]c(=O)n4C)c3=O)c2)c1
EC50 (HIV-1; viral cytopathicity; MT4, E138K mutant): 25 ± 3.3 nM

Cc1cc(C)cc(S(=O)(=O)c2c(C(N)=O)[nH]c3ccc(Cl)cc23)c1
EC50 (HIV-1; viral replication; MT-4, F227L/V106A mutant): 47 ± 23 nM

Cc1cc(/C=C/C#N)cc(C)c1Nc1nc(Nc2ccc(C#N)cc2)ncc1N
EC50 (HIV-1; viral replication, single-round infection; RT mutant K101E/M184V): 0.7 ± 0.1 nM

CC[C@H](C)[C@@H]([C@@H](CC(=O)N1CCC[C@H]1[C@H](OC)[C@@H](C)C(=O)N[C@H](C)[C@@H](O)c1ccccc1)OC)N(C)C(=O)[C@@H](NC(=O)[C@H](C(C)C)N(C)C(=O)OCc1ccc(NC(=O)[C@H](CCCNC(N)=O)NC(=O)[C@@H](NC(=O)CCCC(=O)NCCC(=O)N(C)CC(=O)N(C)CC(=O)N(C)CC(=O)N(C)CC(=O)N(C)CC(=O)N(C)CC(=O)N(C)CC(=O)N(C)CC(=O)N(C)CC(=O)N(C)CC(=O)N[C@H]2CSCCC(=O)N3CN4CN(C3)C(=O)CCSC[C@H](NC(=O)[C@@H](CC(=O)O)NC(=O)[C@H](Cc3cccc5ccccc35)NC(=O)[C@@H]3CCCN3C2=O)C(=O)N[C@@H](CCSC)C(=O)N[C@@H](CCCCNC(=N)N)C(=O)N[C@@H](CC(=O)O)C(=O)N[C@@H](Cc2c[nH]c3ccccc23)C(=O)N[C@@H](CO)C(=O)N[C@@H]([C@@H](C)O)C(=O)N2CCC[C@H]2C(=O)N2C[C@H](O)C[C@H]2C(=O)N[C@@H](Cc2c[nH]c3ccccc23)C(=O)N[C@H](C(N)=O)CSCCC4=O)C(C)C)cc1)C(C)C
fu (plasma protein binding; mouse plasma; 2 µM, 2.5 h, pH 7.4): 0.118

CC[C@H](C)C(=O)N1CCC(NC(=O)Nc2ccc(OC(F)(F)F)c(F)c2)CC1
subjects with COVID-19 TEAE (healthy volunteers; oral, 2 mg single dose): 0%

Cc1cc(/C=C/C#N)cc(C)c1-n1cnc2cnc(Nc3ccc(C#N)cc3)nc21
EC50 (HIV-1; viral replication, single-round infection; RT mutant K101E): 1.2 ± 0.7 nM

CC[C@H](C)[C@@H]1NC(=O)[C@H](CCCNC(=N)N)NC(=O)[C@H](CO)NC(=O)[C@H](CCC(=O)O)NC(=O)[C@H](CC(=O)O)NC(=O)CNC(=O)CNC(=O)[C@H]([C@@H](C)O)NC(=O)[C@H](Cc2ccccc2)NC(=O)[C@H](CO)NC(=O)[C@H]([C@@H](C)O)NC(=O)[C@H](C)NC(=O)[C@@H]2CSSC[C@@H](C(=O)N[C@@H](Cc3ccc(O)cc3)C(=O)N[C@@H](Cc3ccccc3)C(=O)N[C@H](C(=O)N[C@H](C(=O)NCC(=O)O)[C@@H](C)O)[C@@H](C)O)NC(=O)[C@H]([C@@H](C)O)NC(=O)[C@H](CSSC[C@H](NC(=O)[C@H](CCC(=O)O)NC(=O)[C@H](CO)NC(=O)[C@H](CCCCN)NC(=O)[C@H](Cc3ccc(O)cc3)NC(=O)[C@@H]3CCCN3C(=O)[C@H](Cc3ccccc3)NC(=O)[C@H](CCCCN)NC(=O)[C@H](CCCNC(=N)N)NC(=O)[C@H](CCCCN)NC(=O)[C@H](CCCCN)NC(=O)[C@H](Cc3ccc(O)cc3)NC(=O)[C@@H]3CCCN3C(=O)[C@@H](NC(=O)[C@H](CC(=O)O)NC(=O)[C@H](CCCCN)NC(=O)[C@H](CCCCN)NC(=O)[C@@H](NC(=O)[C@@H](NC(=O)[C@@H](N)CCC(=O)O)C(C)C)[C@@H](C)CC)[C@@H](C)O)C(=O)N[C@@H](CC(C)C)C(=O)N[C@@H](CCCCN)C(=O)N[C@@H](C)C(=O)N2)NC(=O)[C@H](CCCCN)NC(=O)[C@H](Cc2ccccc2)NC(=O)[C@H](Cc2ccccc2)NC(=O)CNC(=O)[C@@H]2CCCN2C(=O)[C@H](CCCCN)NC(=O)CNC(=O)[C@H](CCC(=O)O)NC(=O)[C@H](CCC(N)=O)NC1=O
time to death (C57BL/6J mouse; intrahippocampal, 1 µL of 20 µM): 10 to 20 min

CC(C)n1ccn2cc(C(=O)NCc3ccc(F)cc3F)c(=O)c(O)c2c1=O
EC50 (HIV-1; viral replication, single-round vector infection; IN G140A/Q148K): 208 ± 61.2 nM

Cc1cc(C)cc(S(=O)(=O)c2c(C(=O)NC3CC4(C3)CN(Cc3n[nH]c(=O)[nH]3)C4)[nH]c3ccc(Cl)cc23)c1
EC50 (HIV-1; viral replication; MT-4, F227L/V106A mutant): 230 ± 70 nM

O=C(NCc1ccc(F)cc1F)c1cc2cccnc2n(O)c1=O
EC50 (HIV-1; viral replication; infected cells, integrase N155H mutant): 134 ± 23 nM

CCCCCCCCCCCCCCCC(=O)N[C@@H](CCC(=O)NCCOCCOCCC(=O)NCCOCCOCCC(=O)NCCCC[C@H](NC(=O)[C@H](CC(=O)O)NC(=O)[C@H](CC(C)C)NC(=O)[C@H](Cc1ccc(O)cc1)NC(=O)[C@H](CCCCN)NC(=O)[C@H](CO)NC(=O)[C@H](Cc1ccc(O)cc1)NC(=O)[C@H](CC(=O)O)NC(=O)[C@H](CO)NC(=O)[C@@H](NC(=O)[C@H](Cc1ccccc1)NC(=O)[C@@H](NC(=O)CNC(=O)[C@H](CCC(N)=O)NC(=O)[C@@H](CO)NC(=O)[C@@H](N)Cc1c[nH]cn1)[C@@H](C)O)[C@@H](C)O)C(=O)N[C@@H](CCCNC(=N)N)C(=O)N[C@@H](CCCNC(=N)N)C(=O)N[C@@H](C)C(=O)N[C@@H](CCC(N)=O)C(=O)N[C@@H](CC(=O)O)C(=O)N[C@@H](Cc1ccccc1)C(=O)N[C@H](C(=O)N[C@@H](CCC(N)=O)C(=O)N[C@@H](Cc1c[nH]c2ccccc12)C(=O)N[C@@H](CC(C)C)C(=O)N[C@@H](CC(C)C)C(=O)N[C@@H](CC(N)=O)C(=O)N[C@H](C(=O)NCC(=O)NCC(=O)N1CCC[C@H]1C(=O)N[C@@H](CO)C(=O)N[C@@H](CO)C(=O)NCC(=O)N[C@@H](C)C(=O)N1CCC[C@H]1C(=O)N1CCC[C@H]1C(=O)N1CCC[C@H]1C(=O)N[C@@H](CO)C(N)=O)[C@@H](C)O)C(C)C)C(=O)O
half-life (rhesus monkey, plasma; subcutaneous, 20 µg/kg, single dose): 2.83 h

A few entries again:
CC[C@H](C)[C@@H]([C@@H](CC(=O)N1CCC[C@H]1[C@H](OC)[C@@H](C)C(=O)N[C@H](C)[C@@H](O)c1ccccc1)OC)N(C)C(=O)[C@@H](NC(=O)[C@H](C(C)C)N(C)C(=O)OCc1ccc(NC(=O)[C@H](CCCNC(N)=O)NC(=O)[C@@H](NC(=O)CCCC(=O)NCCC(=O)N(C)CC(=O)N(C)CC(=O)N(C)CC(=O)N(C)CC(=O)N(C)CC(=O)N(C)CC(=O)N(C)CC(=O)N(C)CC(=O)N(C)CC(=O)N(C)CC(=O)N[C@H]2CSCCC(=O)N3CN4CN(C3)C(=O)CCSC[C@H](NC(=O)[C@@H](CC(=O)O)NC(=O)[C@H](Cc3cccc5ccccc35)NC(=O)[C@@H]3CCCN3C2=O)C(=O)N[C@@H](CCSC)C(=O)N[C@@H](CCCCNC(=N)N)C(=O)N[C@@H](CC(=O)O)C(=O)N[C@@H](Cc2c[nH]c3ccccc23)C(=O)N[C@@H](CO)C(=O)N[C@@H]([C@@H](C)O)C(=O)N2CCC[C@H]2C(=O)N2C[C@H](O)C[C@H]2C(=O)N[C@@H](Cc2c[nH]c3ccccc23)C(=O)N[C@H](C(N)=O)CSCCC4=O)C(C)C)cc1)C(C)C
fu (plasma protein binding; mouse plasma; 2 µM, 2.5 h, pH 7.4): 0.118

CC[C@H](C)C(=O)N1CCC(NC(=O)Nc2ccc(OC(F)(F)F)c(F)c2)CC1
subjects with COVID-19 TEAE (healthy volunteers; oral, 2 mg single dose): 0%
